Experimental data gathered from unrelated publications.
“And” joins repeats or separate records; there may be more than shown. ± gives the spread as reported.

Compound	tested on	assay	system	setting	how to read	endpoint	result
CO[C@H]1C[C@@H]2CC[C@@H](C)[C@@](O)(O2)C(=O)C(=O)N2CCCC[C@H]2C(=O)O[C@H]([C@H](C)C[C@@H]2CC[C@@H](OC(=O)NCCOCCOCCOCCOCCOCCOCCOCCOCCC(=O)N3CCc4cc(Cn5nc(-c6ccc7oc(N)nc7c6)c6c(N)ncnc65)ccc4C3)[C@H](OC)C2)C[C@@H](O)[C@H](C)/C=C(\C)[C@@H](O)[C@@H](OC)C(=O)[C@H](C)C[C@H](C)/C=C/C=C/C=C/1C	–	phase 1 dose escalation	advanced solid tumour patients	intravenous, 12 mg weekly, grade ≥3	–	deaths due to TEAEs	0%
O=C(O)C(F)(F)C(F)(F)C(F)(F)C(F)(F)F	hTERT-RPTEC-OAT1	–	–	concentration not given, 96-well plate	–	LDH release	6.29 mU/mL and 5.56 mU/mL and 7.67 mU/mL
Cc1cc2c(c(O)c1O)C(=O)c1c(O)cc(O)cc1C2=O	HK-2 co-cultured with HepaRG	MTT	–	266.67 µM, 48 h	reference: untreated control	cell viability	122 ± 4.78%
CC1=C(O)C(=O)C=C2C1=CC=C1[C@@]2(C)CC[C@@]2(C)[C@@H]3C[C@](C)(C(=O)O)CC[C@]3(C)CC[C@]12C	COS-7	–	–	10 µM, 24 h, 0.1% DMSO, unit not given	reference: vehicle control	confluence	0.29 ± 0.16
CC[C@H](C)[C@H](NC(=O)[C@H](CCCCN)NC(=O)[C@H](CCC(N)=O)NC(=O)[C@@H](NC(=O)[C@@H](NC(=O)[C@H](CCCCN)NC(=O)[C@H](CCCNC(=N)N)NC(=O)[C@H](Cc1ccccc1)NC(=O)CN)[C@@H](C)CC)C(C)C)C(=O)N[C@@H](CCCNC(=N)N)C(=O)N[C@@H](CC(=O)O)C(=O)N[C@@H](Cc1ccccc1)C(=O)N[C@@H](CC(C)C)C(=O)N[C@@H](CCCNC(=N)N)C(=O)N[C@@H](CC(N)=O)C(=O)N[C@@H](CC(C)C)C(=O)N[C@H](C(N)=O)C(C)C	HEK293	cell viability, MTS	–	serum-free	–	LC50	42 µM
Cc1cc(C(C)(C)c2ccc(O)c(C)c2)ccc1O	HepG2 spheroids, dissociated	annexin V-FITC/PI flow cytometry	–	1 µM, 24 h	–	late apoptotic cells	7.25 ± 1.57%
O=C(Nc1ccc([N+](=O)[O-])cc1Cl)c1cc(Cl)ccc1O	MRC-5, mock-infected	nuclei count	–	96 h	–	LD50	1840 nM
CC(C)NCC(O)COc1ccc(CC(N)=O)cc1 (stereo not shown)	MCF7 AREc32 cells	cell confluency, IncuCyte imaging	–	24 h, nominal concentration	–	IC10	4280 µM
C[C@]1(CO)Cc2ncn(-c3ccc(C#N)c(Cl)c3)c2C(=O)O1	–	–	human, plasma	20 mg once daily, fasted	–	Cmax at steady state	720 nM
CC(c1ccccc1)(c1ccc(O)cc1)c1ccc(O)cc1	HepG2 spheroids	annexin V-FITC/PI flow cytometry	–	10 µM, 96 h	–	necrotic cells	27.1 ± 7.95%
C/C1=C/C(=O)O[C@@H]2C[C@@H](CC[C@H](C)/C=C\C=C\CC1)O[C@@](OCCc1ccccc1)([C@@H]1CSC(=O)N1)C2	MCF7	MTT	–	–	–	lowest cytotoxic concentration	> 1 µM
CC[C@H](C)[C@H](NC(=O)[C@H](CCCNC(=N)N)NC(=O)[C@@H](NC(=O)[C@H](CC(C)C)NC(=O)[C@H](Cc1c[nH]c2ccccc12)NC(=O)[C@H](Cc1ccc(O)cc1)NC(=O)[C@@H](NC(=O)[C@H](CO)NC(=O)[C@@H](NC(=O)[C@H](CCCNC(=N)N)NC(=O)[C@H](CCC(N)=O)NC(=O)[C@H](CCCNC(=N)N)NC(=O)[C@@H]1CCCN1C(=O)[C@H](CC(C)C)NC(=O)[C@H](CO)NC(=O)[C@@H](NC(=O)[C@H](CC(C)C)NC(=O)[C@@H]1CCCN1C(=O)[C@H](CCC(N)=O)NC(=O)[C@H](CCCCN)NC(=O)[C@H](Cc1c[nH]cn1)NC(=O)[C@H](CS)NC(=O)[C@H](CCCNC(=N)N)NC(=O)[C@H](CCCCN)NC(=O)[C@H](CO)NC(=O)[C@H](CC(C)C)NC(=O)[C@H](CO)NC(=O)[C@H](Cc1ccccc1)NC(=O)[C@H](CC(C)C)NC(=O)[C@H](CCCCN)NC(=O)[C@H](Cc1c[nH]cn1)NC(=O)[C@@H](NC(=O)[C@@H](NC(=O)[C@H](CCCCN)NC(=O)[C@H](CCC(N)=O)NC(=O)[C@H](C)NC(=O)[C@H](CCCCN)NC(=O)[C@H](CC(C)C)NC(=O)[C@H](Cc1ccccc1)NC(=O)[C@@H](N)CC(C)C)[C@@H](C)CC)C(C)C)[C@@H](C)CC)[C@@H](C)O)[C@@H](C)O)[C@@H](C)O)C(=O)O	HaCaT	cell viability, MTT	–	–	–	CC50	97 µM
COc1cc2c(Oc3ccc4[nH]c(C)cc4c3F)ccnc2cc1OCC1(N)CC1	–	–	paediatric recurrent refractory sarcoma	12 mg	–	grade 1 or 2 Cholesterol elevation	18.2%
CC(=O)OC[C@H]1O[C@@H](Oc2cc(O)cc3cc4oc(C)cc(=O)c4c(O)c23)[C@H](O)[C@@H](O)[C@@H]1O	HK-2 co-cultured with HepaRG	MTT	–	33.33 µM, 48 h	reference: untreated control	cell viability	94.5 ± 4.97%
CC(C)C[C@H](NC(=O)[C@@H](NC(=O)[C@H](CCCNC(=N)N)NC(=O)[C@H](CCCCN)NC(=O)[C@H](CCCCN)NC(=O)CNC(=O)CNC(=O)CNC(=O)c1ccc2c(c1)C(=O)OC21c2ccc(O)cc2Oc2cc(O)ccc21)[C@@H](C)O)C(=O)N[C@@H](CCCNC(=N)N)C(=O)N[C@@H](CCCCN)C(=O)N[C@@H](CC(N)=O)C(=O)N[C@@H](CC(=O)O)C(=O)N[C@@H](CCCNC(=N)N)C(=O)N[C@@H](CCCCN)C(=O)N[C@@H](CCCCN)C(=O)N[C@@H](CCCNC(=N)N)C(=O)N[C@@H](CS)C(N)=O	hCMEC/D3 monolayers	BBB permeability, Transwell, measured: CF-labelled compound	EGM-2 medium	concentration not given, 1 h, apical to basal	reference: fluorescence added apically	transport ratio	1.9%
O=C1CCP(=S)(c2ccccc2)CC1	PC-3	trypan blue	–	IC50, 72 h	–	viability	1.67%

Compound	tested on	assay	system	setting	how to read	endpoint	result
O=c1ccc2ccccc2o1	HepaRG 3D spheroids	spheroid size	–	168 h, high-content imaging	–	point of departure	497 µM
CC(C)CC(=O)OC[C@H]1O[C@@](C#N)(c2ccc3c(N)ncnn23)[C@H](O)[C@@H]1O	Caco-2 monolayer	–	–	90 µM, 2 h, together with: zosuquidar 25 µM	–	efflux ratio	1.89
CC[C@H](C)[C@H](NC(=O)CN)C(=O)N[C@@H](Cc1c[nH]c2ccccc12)C(=O)N[C@@H](CC(=O)O)C(=O)N[C@@H](CCSC)C(=O)N[C@H](C(=O)N[C@@H](CCCNC(=N)N)C(=O)N[C@@H](CCCCN)C(=O)N[C@H](C(=O)N[C@@H](CCCNC(=N)N)C(=O)N[C@H](C(=O)N[C@H](C(=O)N[C@H](C(=O)N[C@@H](CCCNC(=N)N)C(=O)N[C@@H](CCCCN)C(=O)N[C@@H](C)C(=O)N[C@@H](CCCCN)C(=O)N[C@@H](CCC(N)=O)C(=O)N[C@H](C(=O)N[C@@H](CCCCN)C(=O)N[C@H](C(=O)N[C@@H](Cc1ccccc1)C(=O)N[C@H](C(=O)N[C@@H](CC(N)=O)C(=O)NCC(=O)N[C@@H](CCCCN)C(=O)NCC(=O)N[C@H](C(=O)N[C@@H](CCC(N)=O)C(=O)O)C(C)C)[C@@H](C)CC)[C@@H](C)O)[C@@H](C)CC)[C@@H](C)CC)C(C)C)[C@@H](C)O)C(C)C)[C@@H](C)CC	HaCaT	cytotoxicity, MTT	–	24 h, 37 °C	–	IC50	23.9 µM
COP(=O)(OC)OC=C(Cl)Cl	MCF7 AREc32 cells	cell viability, IncuCyte imaging	–	24 h, freely dissolved concentration	–	IC10	3.82 µM
CC(C)C[C@H](NC(=O)[C@@H](NC(=O)[C@H](CCCNC(=N)N)NC(=O)[C@H](CCC(N)=O)NC(=O)[C@H](Cc1ccccc1)NC(=O)[C@H](Cc1ccc(O)cc1)NC(=O)[C@H](CC(N)=O)NC(=O)[C@H](Cc1c[nH]c2ccccc12)NC(=O)[C@@H](NC(=O)[C@H](CCCNC(=N)N)NC(=O)[C@H](CCCCN)NC(=O)[C@@H](N)Cc1ccccc1)C(C)C)C(C)C)C(=O)N[C@H](C(=O)N[C@@H](CCCCN)C(=O)N[C@@H](CCCCN)C(=O)N[C@@H](Cc1ccc(O)cc1)C(=O)N[C@@H](C)C(N)=O)C(C)C	rat erythrocytes	–	–	200 µM, 60 min, 37 °C	–	hemolysis	49.9 ± 1.4%
CC[C@H](C)[C@H](NC(=O)[C@H](Cc1ccc(O)cc1)NC(=O)[C@H](CCCCN)NC(=O)[C@H](CCC(N)=O)NC(=O)[C@@H](NC(=O)[C@H](Cc1c[nH]c2ccccc12)NC(=O)[C@H](CCCCN)NC(=O)[C@H](CCCCN)NC(=O)[C@H](CCCNC(=N)N)NC(=O)[C@@H]1CCCN1C(=O)[C@H](Cc1c[nH]cn1)NC(=O)[C@@H](NC(=O)[C@H](CS)NC(=O)[C@@H](NC(=O)[C@H](CCCCN)NC(=O)[C@H](CCCCN)NC(=O)CNC(=O)[C@H](CCCNC(=N)N)NC(=O)[C@H](CCCCN)NC(=O)[C@@H](NC(=O)[C@@H](NC(=O)[C@H](Cc1ccccc1)NC(=O)[C@@H](NC(=O)[C@@H](NC(=O)[C@H](C)NC(=O)[C@@H](N)CCCNC(=N)N)C(C)C)[C@@H](C)CC)[C@@H](C)O)[C@@H](C)O)C(C)C)[C@@H](C)O)C(C)C)C(=O)N[C@@H](CO)C(=O)N[C@@H](CC(C)C)C(=O)N[C@@H](CC(C)C)C(=O)N[C@@H](CCCCN)C(=O)N[C@H](C(=O)N1CCC[C@H]1C(=O)N[C@@H](CCCCN)C(=O)N[C@@H](CCC(N)=O)C(=O)N[C@@H](CC(C)C)C(=O)O)[C@@H](C)O	HaCaT	cell viability, MTT	–	24 h	–	CC50	72.5 µM
O=c1[nH]c(=O)n([C@H]2C[C@H](O)[C@@H](CO)O2)cc1/C=C/Br	HEL	cell morphology	–	–	–	minimum cytotoxic concentration	> 300 µM
O=S(=O)(O)C(F)(F)C(F)(F)C(F)(F)C(F)(F)F	hTERT-RPTEC-OAT1	–	–	concentration not given, Transwell, basolateral-to-apical addition	–	LDH release	60.4 mU/mL and 16.9 mU/mL and 71.7 mU/mL and 12.9 mU/mL
C[C@H]1CN(c2n[nH]c3nc(N[C@H]4CC[C@H](NS(=O)(=O)CCC(F)(F)F)CC4)ncc23)CCO1	Small ribosomal subunit protein uS3 (Homo sapiens, UniProt P23396)	Kinobeads competition, measured: RPS3	–	0.16 µM, unit not given	reference: vehicle	remaining binding	0.97
O=S(=O)(O)C(F)(F)C(F)(F)C(F)(F)C(F)(F)C(F)(F)C(F)(F)C(F)(F)C(F)(F)F	hTERT-RPTEC-OAT1	LDH release	culture medium	concentration not given, 24 h, 96-well plate	–	LDH activity in medium	4.77 mU/mL
COc1ccc2c(c1OC)C(=O)c1c(cc(C)c(O)c1OC)C2=O	HK-2 co-cultured with HepaRG	MTT	–	16.67 µM, 48 h	reference: untreated control	cell viability	97.5 ± 6.42%
CN(N=O)[C@H]1CC[C@@H](c2ccc(Cl)c(Cl)c2)c2ccccc21	TK6 expressing CYP2B6	–	–	0.02 µM, 4 h, without S9	reference: vehicle	relative survival	52.2%
Nc1ccn([C@H]2CC[C@@H](CO)O2)c(=O)n1	HEL	cell morphology	–	–	–	minimal cytotoxic concentration	> 250 µM
O=C1c2ccccc2C(=O)c2ccccc21	HK-2 co-cultured with HepaRG	MTT	–	33.33 µM, 24 h	reference: untreated control	viability	131 ± 25.4%
O=S(=O)(Nc1ccc(-c2n[nH]c(=S)o2)cc1)c1ccc(C(F)(F)F)cc1	HEK-293T	MTT	–	up to 100 µM	–	viability	not toxic

Excerpt of the above:
Compound	tested on	assay	system	setting	how to read	endpoint	result
O=C1c2ccccc2C(=O)c2ccccc21	HK-2 co-cultured with HepaRG	MTT	–	33.33 µM, 24 h	reference: untreated control	viability	131 ± 25.4%
CC(C)C[C@H](NC(=O)[C@@H](NC(=O)[C@H](CCCNC(=N)N)NC(=O)[C@H](CCCCN)NC(=O)[C@H](CCCCN)NC(=O)CNC(=O)CNC(=O)CNC(=O)c1ccc2c(c1)C(=O)OC21c2ccc(O)cc2Oc2cc(O)ccc21)[C@@H](C)O)C(=O)N[C@@H](CCCNC(=N)N)C(=O)N[C@@H](CCCCN)C(=O)N[C@@H](CC(N)=O)C(=O)N[C@@H](CC(=O)O)C(=O)N[C@@H](CCCNC(=N)N)C(=O)N[C@@H](CCCCN)C(=O)N[C@@H](CCCCN)C(=O)N[C@@H](CCCNC(=N)N)C(=O)N[C@@H](CS)C(N)=O	hCMEC/D3 monolayers	BBB permeability, Transwell, measured: CF-labelled compound	EGM-2 medium	concentration not given, 1 h, apical to basal	reference: fluorescence added apically	transport ratio	1.9%
O=C(O)C(F)(F)C(F)(F)C(F)(F)C(F)(F)F	hTERT-RPTEC-OAT1	–	–	concentration not given, 96-well plate	–	LDH release	6.29 mU/mL and 5.56 mU/mL and 7.67 mU/mL
CC1=C(O)C(=O)C=C2C1=CC=C1[C@@]2(C)CC[C@@]2(C)[C@@H]3C[C@](C)(C(=O)O)CC[C@]3(C)CC[C@]12C	COS-7	–	–	10 µM, 24 h, 0.1% DMSO, unit not given	reference: vehicle control	confluence	0.29 ± 0.16
